Measurements of several laboratories.
Compare with care: the assays were run in different laboratories. Values joined by “and” are separate records of one study, mostly repeats; a detail may differ. ± marks the error that the study gave.
CYP3A4: Cytochrome P450 3A4 (CYP3A4, Homo sapiens, UniProt P08684)
Chain of UniProt P08684 (whole entry, looked up): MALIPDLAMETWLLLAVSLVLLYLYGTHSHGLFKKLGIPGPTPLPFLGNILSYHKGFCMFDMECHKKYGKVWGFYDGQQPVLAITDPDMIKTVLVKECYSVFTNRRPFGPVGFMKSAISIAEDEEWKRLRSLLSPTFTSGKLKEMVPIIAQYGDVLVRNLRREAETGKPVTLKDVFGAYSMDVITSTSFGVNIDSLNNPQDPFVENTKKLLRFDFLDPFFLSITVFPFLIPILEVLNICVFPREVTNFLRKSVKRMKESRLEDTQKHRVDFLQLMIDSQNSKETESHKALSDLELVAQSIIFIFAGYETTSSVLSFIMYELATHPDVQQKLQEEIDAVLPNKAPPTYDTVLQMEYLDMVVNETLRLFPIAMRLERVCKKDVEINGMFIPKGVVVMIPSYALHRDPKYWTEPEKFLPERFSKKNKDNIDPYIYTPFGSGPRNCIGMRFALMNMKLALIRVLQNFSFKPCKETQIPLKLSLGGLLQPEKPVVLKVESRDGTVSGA
Trypsin: Trypsin (Sus scrofa, UniProt P00761)
Chain of UniProt P00761 (whole entry, looked up): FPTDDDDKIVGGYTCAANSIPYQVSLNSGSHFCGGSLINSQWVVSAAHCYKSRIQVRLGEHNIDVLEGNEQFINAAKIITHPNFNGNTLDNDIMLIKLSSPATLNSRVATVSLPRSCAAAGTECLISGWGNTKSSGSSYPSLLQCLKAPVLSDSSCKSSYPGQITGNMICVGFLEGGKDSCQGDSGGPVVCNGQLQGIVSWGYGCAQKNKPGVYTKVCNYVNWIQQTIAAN
CYP3A7: Cytochrome P450 3A7 (CYP3A7, Homo sapiens, UniProt P24462)
Chain of UniProt P24462 (whole entry, looked up): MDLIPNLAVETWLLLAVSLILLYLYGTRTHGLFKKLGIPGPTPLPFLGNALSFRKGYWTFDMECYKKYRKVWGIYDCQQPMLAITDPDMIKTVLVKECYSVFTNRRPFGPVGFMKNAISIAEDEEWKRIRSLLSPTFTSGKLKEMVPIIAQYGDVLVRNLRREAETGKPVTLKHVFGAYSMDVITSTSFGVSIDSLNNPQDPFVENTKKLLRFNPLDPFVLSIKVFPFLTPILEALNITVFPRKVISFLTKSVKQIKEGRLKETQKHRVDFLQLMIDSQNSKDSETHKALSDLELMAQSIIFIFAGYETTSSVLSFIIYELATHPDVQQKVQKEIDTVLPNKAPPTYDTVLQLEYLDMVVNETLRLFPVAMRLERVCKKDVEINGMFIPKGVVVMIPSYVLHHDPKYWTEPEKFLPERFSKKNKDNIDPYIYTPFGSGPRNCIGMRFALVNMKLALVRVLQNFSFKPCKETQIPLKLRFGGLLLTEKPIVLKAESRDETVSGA
Chain of UniProt P22310 (whole entry, looked up): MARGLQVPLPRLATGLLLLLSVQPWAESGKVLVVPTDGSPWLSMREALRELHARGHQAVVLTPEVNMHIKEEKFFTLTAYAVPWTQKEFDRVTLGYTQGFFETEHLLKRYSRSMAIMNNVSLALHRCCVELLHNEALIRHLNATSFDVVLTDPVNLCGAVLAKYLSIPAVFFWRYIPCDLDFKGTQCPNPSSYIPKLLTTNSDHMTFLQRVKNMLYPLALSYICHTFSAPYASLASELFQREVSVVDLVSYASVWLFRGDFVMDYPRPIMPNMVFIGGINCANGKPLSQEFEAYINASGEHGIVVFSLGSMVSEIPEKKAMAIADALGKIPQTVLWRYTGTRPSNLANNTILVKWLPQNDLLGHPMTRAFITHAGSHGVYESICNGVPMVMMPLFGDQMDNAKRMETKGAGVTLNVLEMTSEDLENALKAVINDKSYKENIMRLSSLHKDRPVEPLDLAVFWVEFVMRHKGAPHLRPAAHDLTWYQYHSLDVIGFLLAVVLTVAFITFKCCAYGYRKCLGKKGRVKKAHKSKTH
Chain of UniProt P02754 (whole entry, looked up): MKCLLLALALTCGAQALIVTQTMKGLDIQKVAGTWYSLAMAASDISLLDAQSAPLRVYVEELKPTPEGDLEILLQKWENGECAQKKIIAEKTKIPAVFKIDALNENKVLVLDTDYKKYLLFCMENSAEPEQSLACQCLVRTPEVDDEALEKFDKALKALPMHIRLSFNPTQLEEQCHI
Chain of UniProt P08183 (whole entry, looked up): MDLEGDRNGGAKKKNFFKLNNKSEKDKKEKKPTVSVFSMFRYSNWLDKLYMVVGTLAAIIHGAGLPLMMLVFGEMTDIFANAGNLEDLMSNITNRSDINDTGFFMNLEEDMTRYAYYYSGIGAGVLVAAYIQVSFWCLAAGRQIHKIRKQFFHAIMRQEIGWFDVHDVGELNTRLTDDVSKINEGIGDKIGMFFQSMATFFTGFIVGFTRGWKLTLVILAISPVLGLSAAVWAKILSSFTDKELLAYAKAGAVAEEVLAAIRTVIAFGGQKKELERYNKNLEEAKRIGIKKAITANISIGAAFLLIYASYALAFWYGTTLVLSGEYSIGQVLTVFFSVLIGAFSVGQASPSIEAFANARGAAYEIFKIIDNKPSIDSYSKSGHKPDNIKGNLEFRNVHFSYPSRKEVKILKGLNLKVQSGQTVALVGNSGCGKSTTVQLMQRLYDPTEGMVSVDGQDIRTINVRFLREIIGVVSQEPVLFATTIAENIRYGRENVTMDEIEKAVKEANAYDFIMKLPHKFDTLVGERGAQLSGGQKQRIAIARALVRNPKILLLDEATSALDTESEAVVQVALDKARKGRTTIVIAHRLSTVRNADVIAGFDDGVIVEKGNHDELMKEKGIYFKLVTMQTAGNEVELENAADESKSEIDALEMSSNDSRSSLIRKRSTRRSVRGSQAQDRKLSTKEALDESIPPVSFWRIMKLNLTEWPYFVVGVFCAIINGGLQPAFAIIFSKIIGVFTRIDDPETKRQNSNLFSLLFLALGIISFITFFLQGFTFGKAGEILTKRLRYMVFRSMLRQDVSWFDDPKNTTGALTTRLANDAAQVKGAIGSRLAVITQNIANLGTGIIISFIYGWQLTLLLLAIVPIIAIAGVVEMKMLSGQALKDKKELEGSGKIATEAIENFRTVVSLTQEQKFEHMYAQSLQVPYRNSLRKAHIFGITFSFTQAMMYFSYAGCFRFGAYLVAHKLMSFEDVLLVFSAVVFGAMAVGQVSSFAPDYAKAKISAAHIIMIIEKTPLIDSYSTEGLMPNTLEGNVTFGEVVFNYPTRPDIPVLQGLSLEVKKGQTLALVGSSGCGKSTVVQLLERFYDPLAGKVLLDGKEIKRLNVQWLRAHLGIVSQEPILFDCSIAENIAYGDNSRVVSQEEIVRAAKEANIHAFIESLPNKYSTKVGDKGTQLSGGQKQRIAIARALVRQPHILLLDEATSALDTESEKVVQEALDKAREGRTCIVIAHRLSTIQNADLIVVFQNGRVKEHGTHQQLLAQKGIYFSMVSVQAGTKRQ
Chain of UniProt Q96JM7 (whole entry, looked up): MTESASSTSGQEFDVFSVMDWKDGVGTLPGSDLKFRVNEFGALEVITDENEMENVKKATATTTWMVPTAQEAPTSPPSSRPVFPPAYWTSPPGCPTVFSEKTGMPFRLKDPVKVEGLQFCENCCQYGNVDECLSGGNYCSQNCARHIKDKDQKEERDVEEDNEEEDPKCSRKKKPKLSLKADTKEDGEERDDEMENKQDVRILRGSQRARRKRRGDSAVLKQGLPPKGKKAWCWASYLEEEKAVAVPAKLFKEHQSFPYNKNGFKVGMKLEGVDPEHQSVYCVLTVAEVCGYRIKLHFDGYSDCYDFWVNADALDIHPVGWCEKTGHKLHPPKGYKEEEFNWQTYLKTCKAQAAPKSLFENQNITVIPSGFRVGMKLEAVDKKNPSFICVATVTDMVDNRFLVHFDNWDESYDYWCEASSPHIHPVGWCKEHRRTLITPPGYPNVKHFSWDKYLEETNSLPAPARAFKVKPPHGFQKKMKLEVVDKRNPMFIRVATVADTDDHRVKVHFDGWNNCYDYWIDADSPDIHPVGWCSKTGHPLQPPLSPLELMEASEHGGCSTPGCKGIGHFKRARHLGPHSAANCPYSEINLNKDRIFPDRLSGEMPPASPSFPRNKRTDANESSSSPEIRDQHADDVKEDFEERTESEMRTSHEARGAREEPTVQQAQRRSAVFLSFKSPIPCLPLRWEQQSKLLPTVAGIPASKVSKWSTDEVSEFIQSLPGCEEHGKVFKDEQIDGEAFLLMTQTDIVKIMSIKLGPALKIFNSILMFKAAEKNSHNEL

`CC[C@H](CO)N(CCN(N=O)[C@H](CC)CO)N=O`: “lowest mutagenic concentration” 5000 µg/plate (Salmonella typhimurium; TA1535, methanol; concentration not given, plate incorporation, no S9).
`Cc1cc(Nc2ncnc3ccc(NC4=NC(C)(CO)CO4)cc23)ccc1Oc1ccn2ncnc2c1` (stereo not drawn): “Cmax (geometric mean)” 125 ng/mL (CYP3A4; human, plasma; tucatinib, day 6, together with: itraconazole).
Under “activation rate acceleration”, `Cc1oc2ccccc2c1Cc1cc(I)c(OCC(=O)O)c(I)c1` is recorded as 2.4 fold (KCNH2 (Homo sapiens, UniProt Q12809); potassium current, whole-cell patch clamp; HEK293 expressing hERG1; 10 µM, envelope-of-tails at +40 mV, 10 mM K+; baseline: control).
`CC[C@H](C)[C@H](NC(=O)[C@H](CO)NC(=O)[C@H](Cc1ccc(O)cc1)NC(=O)[C@H](CC(=O)O)NC(=O)[C@H](CO)NC(=O)[C@@H](NC(=O)[C@H](Cc1ccccc1)NC(=O)[C@@H](NC(=O)CNC(=O)[C@H](CCC(=O)O)NC(=O)[C@H](C)NC(=O)[C@@H](N)Cc1ccc(O)cc1)[C@@H](C)O)[C@@H](C)CC)C(=O)N[C@@H](C)C(=O)N[C@@H](CCSC)C(=O)N[C@@H](CC(=O)O)C(=O)N[C@@H](CCCCN)C(=O)N[C@H](C(=O)N[C@@H](Cc1c[nH]cn1)C(=O)N[C@@H](CCC(N)=O)C(=O)N[C@@H](CCC(N)=O)C(=O)N[C@@H](CC(=O)O)C(=O)N[C@@H](Cc1ccccc1)C(=O)N[C@H](C(=O)N[C@@H](CC(N)=O)C(=O)N[C@@H](Cc1c[nH]c2ccccc12)C(=O)N[C@@H](CC(C)C)C(=O)N[C@@H](CC(C)C)C(=O)N[C@@H](C)C(=O)N[C@@H](CCC(N)=O)C(=O)N[C@@H](CCCCN)C(=O)NCC(=O)N[C@@H](CCCCN)C(=O)N[C@@H](CCCCN)C(=O)N[C@@H](CC(N)=O)C(=O)N[C@@H](CC(=O)O)C(=O)N[C@@H](Cc1c[nH]c2ccccc12)C(=O)N[C@@H](CCCCN)C(=O)N[C@@H](Cc1c[nH]cn1)C(=O)N[C@@H](CC(N)=O)C(=O)N[C@H](C(=O)N[C@H](C(=O)N[C@@H](CCC(N)=O)C(=O)O)[C@@H](C)O)[C@@H](C)CC)C(C)C)[C@@H](C)CC` gave a fragment formed of 13% (Trypsin; LC-MS, measured: fragment 1-33; 18 h, pH 8.0, 37 °C, together with: trypsin 2.5 mg/mL).
`O=C(c1ccc(C(=O)N2CCC(N3CCCC3)CC2)c(Nc2ccccc2)c1)N1CCC(N2CCCC2)CC1`: “FRAP recovery half-time” 19.9 s (Lethal(3)malignant brain tumor-like protein 3 (Homo sapiens, UniProt Q96JM7); FRAP; human cells; 1 µM).
With `CC(C)C[C@H](NC(=O)CNC(=O)[C@H](C)NC(=O)[C@H](CC(C)C)NC(=O)[C@H](CC(N)=O)NC(=O)[C@H](Cc1c[nH]c2ccccc12)NC(=O)[C@@H](NC(=O)[C@H](Cc1ccc(O)cc1)NC(=O)[C@H](Cc1ccc(O)cc1)NC(=O)[C@H](CO)NC(=O)[C@H](CCCNC(=N)N)NC(=O)[C@H](Cc1c[nH]cn1)NC(=O)[C@@H](N)Cc1c[nH]c2ccccc12)[C@@H](C)O)C(=O)N[C@H](C(=O)NCC(=O)N[C@@H](CCCCN)C(=O)O)C(C)C` the cleaved fraction was 87.7% (MMP-2 human recombinant; UPLC-Q-TOF MS; 2 h, pH 7.5, 37 °C, together with: MMP-2 5 ng/µL).
`COc1cc(O)c2c(c1)C(=O)c1cc(C)cc(O)c1C2=O` has a cell viability of 116 ± 14.8% (HepaRG co-cultured with HK-2; MTT; 16.67 µM, 24 h; baseline: untreated control).
For `Cc1cnc(C(=O)N[C@H]2CCCCC/C=C\[C@@H]3C[C@@]3(C(=O)NS(=O)(=O)C3CC3)NC(=O)[C@@H]3C[C@@H](Oc4nc5ccccc5c5ccccc45)CN3C2=O)cn1`, the kinact was 0.000159 s⁻¹ (CYP3A7; time-dependent inhibitor, 16α-hydroxylation of DHEA-S; recombinant bactosomes; preincubation, with NADPH, 0 min, pH 7.4, together with: DHEA-S 50 µM).
Under “fraction metabolised by UGT1A4”, `Cn1cncc1[C@@](N)(c1ccc(Cl)cc1)c1ccc2c(c1)c(-c1cccc(Cl)c1)cc(=O)n2C` is recorded as ~61% and 60.5% (UGT1A4 (Homo sapiens, UniProt P22310); reaction phenotyping; human liver microsomes).
For `COc1ccc(F)cc1C(=O)NCc1ccc(-c2nn([C@@H](C)C(F)(F)F)c(N)c2C(N)=O)cc1`, the Tmax was 2.25 h (CYP3A4; human, both sexes, plasma; oral, 200 mg, single dose, together with: rifampin).
With `CC[C@H](C)[C@H](NC(=O)[C@H](CO)NC(=O)[C@H](Cc1ccc(O)cc1)NC(=O)[C@H](CC(=O)O)NC(=O)[C@H](CO)NC(=O)[C@@H](NC(=O)[C@H](Cc1ccccc1)NC(=O)[C@@H](NC(=O)CNC(=O)[C@H](CCC(=O)O)NC(=O)[C@H](C)NC(=O)[C@H](Cc1ccc(O)cc1)NCC(F)(F)F)[C@@H](C)O)[C@@H](C)CC)C(=O)N[C@@H](C)C(=O)N[C@@H](CCSC)C(=O)N[C@@H](CC(=O)O)C(=O)N[C@@H](CCCCN)C(=O)N[C@H](C(=O)N[C@@H](Cc1c[nH]cn1)C(=O)N[C@@H](CCC(N)=O)C(=O)N[C@@H](CCCCNC(=O)COCCOCCNC(=O)COCCOCCNC(=O)CC[C@H](NC(=O)CCCCCCCCCCCCCCCCC(=O)O)C(=O)O)C(=O)N[C@@H](CC(=O)O)C(=O)N[C@@H](Cc1ccccc1)C(=O)N[C@H](C(=O)N[C@@H](CC(N)=O)C(=O)N[C@@H](Cc1c[nH]c2ccccc12)C(=O)N[C@@H](CC(C)C)C(=O)N[C@@H](CC(C)C)C(=O)N[C@@H](C)C(=O)N[C@@H](CCC(N)=O)C(=O)N[C@@H](CCCCN)C(=O)NCC(=O)N[C@@H](CCCCN)C(=O)N[C@@H](CCCCN)C(=O)N[C@@H](CC(N)=O)C(=O)N[C@@H](CC(=O)O)C(=O)N[C@@H](Cc1c[nH]c2ccccc12)C(=O)N[C@@H](CCCCN)C(=O)N[C@@H](Cc1c[nH]cn1)C(=O)N[C@@H](CC(N)=O)C(=O)N[C@H](C(=O)N[C@H](C(=O)N[C@@H](CCC(N)=O)C(=O)O)[C@@H](C)O)[C@@H](C)CC)C(C)C)[C@@H](C)CC` the fragment formed was 7% (Trypsin; LC-MS, measured: fragment 1-32; 18 h, pH 8.0, 37 °C, together with: trypsin 2.5 mg/mL).
`CCCCC1=NC2(CCCC2)C(=O)N1Cc1ccc(-c2ccccc2S(=O)(=O)Nc2noc(C)c2C)c(COCC)c1` gave a Hill coefficient of 1 (CYP2C9; enzyme induction, inducer; human).
For `CN1C[C@@H]2C[C@H]1CN2c1cc2c(cc1F)c(=O)c(C(=O)O)cn2C1CC1`, the percent transported was 5.06 ± 1.84% (ABCG2 (sheep); apical-to-basolateral transport, transepithelial transport; MDCK-II transduced with ovine ABCG2, HBSS with HEPES; 10 µM, 4 h).
`CC[C@H]1[C@@H](O)[C@@H]2[C@H](CC[C@]3(C)[C@@H]([C@H](C)CCNC(=O)NS(=O)(=O)c4ccc(C(C)(C)C)cc4)CC[C@@H]23)[C@@]2(C)CC[C@@H](O)C[C@@H]12` gave an AUC(0-t) of 1600 ng·h/mL (CYP3A4; human, plasma; dose not given, mean, together with: fluconazole).
`CC1=C[C@H](O)CC(C)(C)[C@H]1/C=C/C(C)=C/C=C/C(C)=C/C=C/C=C(C)/C=C/C=C(C)/C=C/C1=C(C)C[C@@H](O)CC1(C)C` gave a zeta potential of -9.33 ± 0.3 mV (Beta-lactoglobulin (LGB, Bos taurus, UniProt P02754); protein-carotenoid complex; 298 K).
`CC1(C)CCC2(CC1)N[C@@H](C(=O)N[C@@H]1CC[C@@H](C(N)=O)OC1)[C@H](c1ccnc(Cl)c1F)[C@]21C(=O)Nc2cc(Cl)ccc21` — result for “Papp B to A”: 17.5 ×10⁻⁶ cm/s (ABCB1 (Homo sapiens, UniProt P08183); Caco-2 monolayers; 3 µM, 120 min, no inhibitor).
The apoptosis of `Cc1onc(-c2ccccc2)c1-c1ccc(S(N)(=O)=O)cc1` is reported as 1.05 ± 0.28 (COS-7; 100 µM, 24 h, 0.1% DMSO, unit not given; baseline: control).
The remaining activity of `CC(C)(C)[C@@H]1NC(=O)O[C@@H]2CCC[C@H]2OC/C=C/C(F)(F)c2nc3ccccc3nc2O[C@@H]2C[C@@H](C(=O)N[C@]3(C(=O)NS(=O)(=O)C4(C)CC4)C[C@H]3C(F)F)N(C2)C1=O` is reported as about 35% (CYP3A7; fluorescence; recombinant bactosomes; 20 µM, 10 min, pH 7.4, together with: dibenzylfluorescein at Km; baseline: solvent control).
The Cmax of `C=CC(=O)N1C[C@H](Nc2ncnc3[nH]ccc23)CC[C@@H]1C` is reported as 153 ng/mL (CYP3A; substrate; human, plasma; oral, 30 mg single dose, cpd alone).
The apoptotic cells of `COc1cccc2c(Nc3ccc4[nH]c(C(=O)N/N=C/c5ccc(SC)cc5)cc4c3)cc(C)nc12` is reported as 19.5 ± 7.35 (COS-7; 3 µM, 24 h, 0.1% DMSO, unit not given; baseline: vehicle control).
With `C=C[C@@H]1C[C@]1(NC(=O)[C@@H]1C[C@@H](Oc2ncc(OC)c3ccc(Cl)cc23)CN1C(=O)[C@@H](NC(=O)OC(C)(C)C)C(C)(C)C)C(=O)NS(=O)(=O)C1CC1` the remaining activity was about 35% (CYP3A7; fluorescence; recombinant bactosomes; 20 µM, 10 min, pH 7.4, together with: dibenzylfluorescein at Km; baseline: solvent control).
